Experimental data collected from several papers.
Values joined by “and” are separate records of one study, mostly repeats; a detail may differ. ± gives the spread as reported. In brackets after ≈: the same amount, converted by molar mass.

Cn1c(-c2ccc(C(N)=O)cc2F)nnc1C(C)(C)Oc1c(F)cc(Cl)cc1F
nervous system disorder TEAE (human; oral, 10 mg, single ascending dose): 0%

CN1CC[C@@H](c2c(O)cc(O)c3c(=O)cc(-c4ccc(C(F)(F)F)cc4Cl)oc23)[C@@H]1CO
patients with adverse event (item: Pneumonia; relapsed AML; oral, 200 mg, grade 3-4, intermittent dosing): 0%

CN(C(=O)n1cnc(-c2ccc[n+]([O-])c2)c1)C1CCCCC1
concentration (Wistar rat, cerebellum; oral, 10 mg/kg/day, 72 h, repeated 5 days): 14.8 ± 7.3 ng/g

CC1CC(c2ccc(O)cc2)=NN1c1ccc(C#N)c(Cl)c1 (stereo not drawn)
kinetic solubility (PBS; 90 min): 81 µM (≈ 25.3 µg/mL)

C[C@]1(CO)Cc2ncn(-c3ccc(C#N)c(Cl)c3)c2C(=O)O1
subjects with any TEAE (human, Chinese; 60 mg single dose): 16.7%

COc1ncccc1-c1cnn2ccc(N3CCN(C(=O)OC(C)C)CC3)nc12
concentration (mouse SNL model, brain; oral, 30 mg/kg, 30 min): 35 µM

C[C@@H](NC(=O)N1C(=O)[C@H](Cc2ccnc(N)c2)[C@H]1C(=O)O)C1CCCCC1
hypokalemia (healthy Chinese adult volunteers; continuous intravenous infusion, dose not given, 5.0 days, CTCAE 5.0, all doses): 2.5%

CO[C@H]1C[C@@H]2CC[C@@H](C)[C@@](O)(O2)C(=O)C(=O)N2CCCC[C@H]2C(=O)O[C@H]([C@H](C)C[C@@H]2CC[C@@H](OC(=O)NCCOCCOCCOCCOCCOCCOCCOCCOCCC(=O)N3CCc4cc(Cn5nc(-c6ccc7oc(N)nc7c6)c6c(N)ncnc65)ccc4C3)[C@H](OC)C2)C[C@@H](O)[C@H](C)/C=C(\C)[C@@H](O)[C@@H](OC)C(=O)[C@H](C)C[C@H](C)/C=C/C=C/C=C/1C
Pneumonia AE leading to dose reduction (patients with advanced solid tumours; intravenous, dose not given, any grade): 1.8%

CC(C)[C@@H]1NC(=O)CNC(=O)[C@H](CC(N)=O)NC(=O)[C@H](CCCNC(=N)N)NC(=O)[C@H](Cc2ccc(O)cc2)NC(=O)[C@H](C(C)C)NC(=O)[C@@H](NC(=O)[C@@H](NC(=O)[C@H](CC(N)=O)NC(=O)[C@H](Cc2c[nH]c3ccccc23)NC(=O)[C@H](C)NC(=O)[C@H](Cc2ccccc2)NC(=O)CN)C(C)C)CSSC[C@@H](C(=O)N[C@@H](Cc2cnc[nH]2)C(=O)N[C@@H](CCCNC(=N)N)C(=O)N[C@@H](CCCNC(=N)N)C(=O)N[C@@H](C)C(=O)N[C@@H](CC(N)=O)C(N)=O)NC(=O)[C@H](C(C)C)NC(=O)[C@H](CCCNC(=N)N)NC1=O
total protein (ICR mouse, serum; ip, 5 mg/kg, 3 d dosing, blood day 5): 53.6 ± 0.98 g/L

C[C@@H]1NC(=O)[C@H](CCCCNC(=O)CO/N=C/C(=O)NCCCC[C@@H]2NC(=O)[C@@H](Cc3ccccc3)NC(=O)[C@H](CC(=O)O)NC(=O)CNC(=O)[C@H](CCCNC(=N)N)NC2=O)NC(=O)CNC(=O)[C@@H]2CCCN2C(=O)[C@H](CCCCNC(=O)CO/N=C/C(=O)NCCCC[C@@H]2NC(=O)[C@@H](Cc3ccccc3)NC(=O)[C@H](CC(=O)O)NC(=O)CNC(=O)[C@H](CCCNC(=N)N)NC2=O)NC(=O)[C@H](CCCCNC(=O)CCNC(=O)CCNC(=O)CCNC(=O)[C@H](CCCCN)NC(=O)[C@H](Cc2ccccc2)NC(=O)CNC(=O)CN2CCCNCCNCCCNCC2)NC(=O)[C@H](CCCCNC(=O)CO/N=C/C(=O)NCCCC[C@@H]2NC(=O)[C@@H](Cc3ccccc3)NC(=O)[C@H](CC(=O)O)NC(=O)CNC(=O)[C@H](CCCNC(=N)N)NC2=O)NC(=O)CNC(=O)[C@@H]2CCCN2C(=O)[C@H](CCCCNC(=O)CO/N=C/C(=O)NCCCC[C@@H]2NC(=O)[C@@H](Cc3ccccc3)NC(=O)[C@H](CC(=O)O)NC(=O)CNC(=O)[C@H](CCCNC(=N)N)NC2=O)NC1=O [copper-64 labelled]
tissue uptake (normal mice, muscle; intravenous, 0.74 MBq, 3 h post-injection): 0.38 ± 0.02 %ID/g

O=c1nc(NO)ccn1[C@@H]1O[C@H](CO)[C@@H](O)[C@H]1O
autosampler stability (rat placenta dialysate; 25 ng/mL, 6 h, 10 °C, low QC concentration, together with: molnupiravir): 101 ± 3.11%

CC(C)C[C@H](NC(=O)[C@H](CCCCN)NC(=O)OCC1c2ccccc2-c2ccccc21)C(=O)N[C@H](C(=O)N[C@@H](Cc1ccccc1)C(=O)N[C@@H](Cc1ccccc1)C(=O)N[C@@H](CCCCN)C(=O)NCC(=O)N[C@@H](Cc1ccccc1)C(=O)N[C@@H](C)C(=O)N[C@@H](Cc1c[nH]c2ccccc12)C(=O)N[C@@H](CC(N)=O)C(=O)N[C@H](C(=O)N[C@H]1CSSC[C@@H](C(=O)N[C@@H](Cc2c[nH]cn2)C(=O)N[C@@H](CCCNC(=N)N)C(=O)N[C@@H](CCCNC(=N)N)C(=O)N[C@@H](C)C(=O)N[C@@H](CC(N)=O)C(N)=O)NC(=O)[C@H](C(C)C)NC(=O)[C@H](CCCNC(=N)N)NC(=O)[C@H](C(C)C)NC(=O)CNC(=O)[C@H](CC(N)=O)NC(=O)[C@H](CCCNC(=N)N)NC(=O)[C@H](Cc2ccc(O)cc2)NC(=O)[C@H](C(C)C)NC1=O)C(C)C)C(C)C
platelet distribution width (ICR mice, blood; intraductal mammary, 10 mg/kg, day 5): 15.34 ± 0.15%

CC(C)(O)c1cc(Nc2cc(Oc3cn(C4CC4)nc3C3CCOCC3)ccn2)ccn1
ALT increased, grade ≥3 (patients with advanced cancer, Japanese cohort; oral, dose not given, treatment-related adverse events): 0%

N#C[C@@]1(n2ccc(N)nc2=O)O[C@H](CO)[C@@H](O)[C@H]1O
concentration (CD-1 mouse, lung; intravenous, 15 mg/kg, 7 h): 223 ng/g and 412 ng/g and 327 ng/g

O=c1cc(-c2ccc(O)c(O)c2)oc2cc(O)cc(O)c12
cumulative urinary excretion (male Sprague-Dawley rats, lean, urine; oral, 100 mg/kg of neohesperidin, 48 h): 480 ± 67.5 ng

COC[C@@H](CC(C)C)NC(=O)c1ccc(C)c(C)c1
PCE to total erythrocyte ratio (Hsd:ICR (CD-1) mouse, male, bone marrow; oral, 500 mg/kg, 24 h): 0.485

CCCCCCCCCCCCCCCC(=O)N[C@@H](CCC(=O)NCCCC[C@H](NC(=O)[C@H](CC(=O)O)NC(=O)[C@H](CO)NC(=O)[C@@H](NC(=O)[C@H](Cc1ccccc1)NC(=O)[C@@H](NC(=O)CNC(=O)[C@H](CCC(N)=O)NC(=O)[C@H](CO)NC(=O)[C@@H](N)Cc1c[nH]cn1)[C@@H](C)O)[C@@H](C)O)C(=O)N[C@@H](CO)C(=O)N[C@@H](CCC(=O)O)C(=O)N[C@@H](Cc1ccc(O)cc1)C(=O)N[C@@H](CC(C)C)C(=O)N[C@@H](CC(=O)O)C(=O)N[C@@H](CO)C(=O)N[C@@H](CCC(=O)O)C(=O)N[C@@H](CCCNC(=N)N)C(=O)N[C@@H](C)C(=O)N[C@@H](CCCNC(=N)N)C(=O)N[C@@H](CC(=O)O)C(=O)N[C@@H](Cc1ccccc1)C(=O)N[C@H](C(=O)N[C@@H](C)C(=O)N[C@@H](Cc1c[nH]c2ccccc12)C(=O)N[C@@H](CC(C)C)C(=O)N[C@@H](CCC(=O)O)C(=O)N[C@@H](C)C(=O)NCC(=O)NCC(=O)O)C(C)C)C(=O)O
treatment-related adverse events (item: Tachycardia; humans CrCl below 20 mL/min; subcutaneous, 100 µg single dose): 0%

CC(C)CC(=O)OC[C@H]1O[C@@](C#N)(c2ccc3c(N)ncnn23)[C@H](O)[C@@H]1O
fraction bound (human plasma; 0.9 to 90 µM): 0.808

CN1CCN(c2cccc3c2CCN(C(=O)/C=C/c2c(-n4cnnn4)ccc(Cl)c2F)[C@@H]3C(=O)Nc2ccc(C(=O)O)cc2)C(=O)C1
deaths (healthy human subjects; intravenous infusion, 3 mg/h, 5 days): 0%

CCC[C@@](N)(CO)CCc1ccc(OCCCCCC(C)C)cc1
AUC(0-t) (dog, male hounds, plasma; oral capsule, 2.5 mg/kg, geometric mean): 3 µM·h

O=C(Nc1ccccc1)C1CCN(C(=O)Oc2cccnc2)CC1
adverse event Nausea (healthy women; oral, 100 mg, 9 days): 23.1%

CC(C)(C)c1cc(-n2nc3ccccc3n2)c(O)c(C(C)(C)C)c1
daily dermal exposure dose (human aged 11-16 years; concentration not given, sunscreen, 95th percentile): 4.63 ng/kg/day

CCCCCOc1ccc(-c2ccc(-c3ccc(C(=O)N[C@H]4C[C@@H](O)[C@@H](OCC[N+](C)(C)C)NC(=O)[C@@H]5[C@@H](O)[C@@H](C)CN5C(=O)[C@H]([C@@H](C)O)NC(=O)[C@H]([C@H](O)[C@@H](O)c5ccc(O)cc5)NC(=O)[C@@H]5C[C@@H](O)CN5C(=O)[C@H]([C@@H](C)O)NC4=O)cc3)cc2)cc1
AUC(0-168 h) (adult patients in ICU, plasma; intravenous, 400 mg loading, after first dose, median): 659 µg·h/mL

CC(C)c1nc(N(C)S(C)(=O)=O)nc(-c2ccc(F)cc2)c1/C=C/[C@@H](O)C[C@@H](O)CC(=O)O
incidence of upper abdominal pain (healthy human subjects; oral, dose not given, study CL-0537 safety set): 0%

C[C@@H]1[C@H](O)[C@@H](C)/C=C/C=C/CC/C=C/C=C/C=C/C=C/C(O[C@H]2O[C@H](C)[C@@H](O)[C@H](N)[C@@H]2O)CC2O[C@](O)(CC(O)C(O)CCC(O)CC(O)CC(O)CC(=O)O[C@H]1C)CC(O)C2C(=O)O (stereo partly drawn)
ALT and AST levels (mouse, bilateral renal I/R AKI; iv, 0.1 µmol/kg; relative to: untreated I/R mice): increased

O=C(O)CCC(CP(=O)(O)O)C(=O)O (stereo not drawn)
stability (processed derivatized rat plasma; at least 18 h, 10 °C, autosampler): stable

O=c1ccc2cc3ccoc3cc2o1
accuracy (post-procedure stability; rat plasma; 1000 ng/mL, 1 h, room temperature): 81.8%

CCc1ccc(CC/C=C/c2ccc3c(c2)C(=O)CC3)cc1
Calcium (Sprague-Dawley rat, female; oral, 450 mg/kg/day, 14 days): 2.47 mM

COc1cc2c(Oc3ccc4[nH]c(C)cc4c3F)ccnc2cc1OCC1(N)CC1
grade 1 or 2 intestinal obstruction (paediatric recurrent refractory sarcoma; 8 mg): 0%

O=S(=O)(Nc1ccccc1)c1ccc(NC(=S)Nc2ccccc2)cc1
blood cell fraction (item: NE%; male mouse, blood; oral, 5 mg/kg daily, 14 days): 17.6%

Cn1cncc1-c1c(F)cncc1NC(=O)c1c(N)nn2cc(F)cnc12
grade ≥3 white cell decrease incidence (human patients; oral, 130 mg once daily): 0%

O=c1c2cc(Cl)c(CO)cc2[nH]c(=S)n1Cc1cncnc1
volume of distribution at steady state (mouse, plasma; intravenous, dose not given): 0.86 L/kg

Cc1cccc(Cn2nc(C3CC3)c3c(NC(=O)c4cnc5cc(OCCN6CCN(C)CC6)ccn45)cccc32)n1
adverse events incidence (item: Dehydration; human pancreatic ductal adenocarcinoma; oral, dose not given, all-causality): 18.5%

C[C@@H]1OC(=O)NN=C1c1ccc(-c2ccc(F)cc2)c(C(F)(F)F)c1
patients with adverse event (phase I trial, item: Nausea all grades; human patients; 10 mg loading then 0.5 mg daily): 100%

O.O.O.O.O.O.[Cl-].[Cl-].[Co+2]
cobalt in urine (rat male, urine; oral, 10 mg/kg single, day 2): 834 µg/L

O=C1Nc2cc3[nH]nc(-c4ccncc4)c3cc2CN1Cc1ccccc1
patients with increased GGT (CTCAE v4.03; advanced solid tumour patients; intravenous, 7.2 mg/kg, schedules 1/2): 20%
